{"data": "Measured values of several laboratories", "note": "Each line is one published result; not all experiments were run side by side. “And” joins repeats or separate records; there may be more than shown. Numbers after ± are the reported error."}
{"Structure (SMILES)": "COC(=O)C1=CO[C@@H](C)[C@@H]2Cn3ccc4c5ccccc5nc-4c3C[C@H]12", "organism": "Plasmodium falciparum", "test": "growth, [3H]-hypoxanthine uptake", "system": "FCR3", "setting": "96 h", "scale": "baseline: FCR3 IC50 over 3D7 IC50", "endpoint": "resistance index", "value": 1.4}
{"Structure (SMILES)": "Cc1cc(C(=O)Nc2nc3cccc(C)c3n2[C@H]2CCCCN(C(=O)/C=C/CN(C)C)C2)ccn1", "organism": "Trypanosoma brucei", "test": "cell growth, Alamar Blue", "system": "2T1 overexpressing Tb927.10.7780", "scale": "baseline: parental 2T1", "endpoint": "EC50 fold shift", "value": "0.62 fold and 1.27 fold"}
{"Structure (SMILES)": "CC(C)[C@H]1NC(=O)CNC(=O)[C@H](CO)NC(=O)[C@@H](Cc2c(-c3ccc(-c4ccc(-c5ccccc5)cc4)cc3)[nH]c3ccccc23)NC(=O)[C@@H](CO)NC(=O)[C@@H](C(C)C)NC(=O)[C@H](Cc2ccccc2)NC1=O", "organism": "Mycobacterium marinum", "endpoint": "MIC90", "value": "50.5 µM"}
{"Structure (SMILES)": "Cc1cc(Cl)cc(S(C)(=O)=NC#N)c1NC(=O)c1cc(Br)nn1-c1ncccc1Cl (stereo not drawn)", "organism": "Spodoptera litura", "test": "leaf-dip", "system": "third instar larvae", "setting": "50 ppm, 48 h", "endpoint": "mortality", "value": "3.3%"}
{"Structure (SMILES)": "CC[C@H](C)[C@H](NC(=O)[C@H](CCCCN)NC(=O)[C@H](CCCCN)NC(=O)[C@H](Cc1ccccc1)NC(=O)[C@H](Cc1ccccc1)NC(=O)[C@H](CCCCN)NC(=O)[C@H](CCCCN)NC(=O)[C@H](Cc1ccccc1)NC(=O)[C@H](CCCNC(=N)N)NC(=O)[C@@H](N)CCCCN)C(=O)N[C@@H](CCCCN)C(=O)N[C@@H](CCCCN)C(=O)N[C@@H](CO)C(=O)N[C@H](C(=O)N[C@@H](CCCCN)C(=O)N[C@@H](CCCCN)C(=O)N[C@@H](CCCNC(=N)N)C(=O)N[C@H](C(=O)N[C@@H](CCCCN)C(=O)N[C@@H](CCCCN)C(=O)N[C@@H](CC(C)C)C(=O)N[C@@H](Cc1ccccc1)C(=O)N[C@@H](CCCCN)C(=O)N[C@@H](CCCCN)C(=O)N1CCC[C@H]1C(=O)N[C@@H](CCCNC(=N)N)C(=O)N[C@H](C(=O)N[C@H](C(=O)N1CCC[C@H]1C(=O)N[C@H](C(=O)N[C@@H](CO)C(=O)N[C@H](C(=O)N1CCC[C@H]1C(=O)N[C@@H](Cc1ccccc1)C(=O)O)[C@@H](C)CC)[C@@H](C)CC)[C@@H](C)CC)C(C)C)C(C)C)C(C)C", "organism": "Escherichia coli", "system": "E25 clinical isolate", "setting": "20 h", "endpoint": "MBC", "value": "8 µg/mL"}
{"Structure (SMILES)": "CCOC(=O)C1(Cc2ccc(C#N)cc2F)Oc2cc(F)ccc2N(Cc2ccc(C#N)cc2F)C1=O (stereo not drawn)", "organism": "Setaria viridis", "test": "fresh weight, greenhouse postemergence", "setting": "postemergence, 150 g ai/ha, 21 days", "endpoint": "inhibition", "value": "43.4 ± 0.62%"}
{"Structure (SMILES)": "CN(C)c1nc(NCc2ccccc2F)c(/N=N/c2ccc(Cl)cc2)c(N(C)C)n1", "organism": "Ostrinia furnacalis", "test": "leaf dipping", "setting": "500 mg/L, 96 h", "endpoint": "mortality", "value": "100%"}
{"Structure (SMILES)": "N=C(N)NCCC[C@H](NC(=O)[C@H](CCCNC(=N)N)NC(=O)[C@H](CCCNC(=N)N)NC(=O)[C@H](CCC(N)=O)NC(=O)[C@H](CCCNC(=N)N)NC(=O)[C@H](CCCNC(=N)N)NC(=O)[C@H](CCCCN)NC(=O)[C@H](CCCCN)NC(=O)[C@H](CCCNC(=N)N)NC(=O)CNC(=O)[C@H](Cc1ccc(O)cc1)NC(=O)[C@H](Cc1ccccc1)NC(=O)[C@H](Cc1ccccc1)NC(=O)[C@H](Cc1ccccc1)NC(=O)OCC1c2ccccc2-c2ccccc21)C(=O)O", "organism": "Gram-positive bacteria", "setting": "seven strains", "endpoint": "geometric mean MIC", "value": "3.62 µM"}
{"Structure (SMILES)": "CC[C@H](C)[C@@H]1NC(=O)[C@H](CO)NC(=O)[C@H](CCCCN)NC(=O)[C@@H]2CSSC[C@@H](C(=O)N[C@@H](Cc3ccc(O)cc3)C(N)=O)NC(=O)[C@H](CCCCN)NC(=O)[C@@H]3CSSC[C@H](NC(=O)[C@H](CCCNC(=N)N)NC(=O)[C@H](CC(C)C)NC(=O)[C@H](CC(=O)O)NC(=O)[C@H](CC(=O)O)NC(=O)[C@H](CCC(=O)O)NC(=O)[C@H](CC(N)=O)NC(=O)[C@H](Cc4c[nH]c5ccccc45)NC(=O)[C@@H]4CCCN4C(=O)CNC(=O)[C@H](CC(N)=O)NC(=O)[C@@H](NC(=O)CNC(=O)[C@H](Cc4ccccc4)NC(=O)CN)CSSC[C@H](NC(=O)[C@H](Cc4ccc(O)cc4)NC(=O)CNC(=O)CNC(=O)[C@H](CCCCN)NC(=O)[C@H](Cc4ccc(O)cc4)NC(=O)CNC(=O)[C@H](CCCCN)NC1=O)C(=O)N[C@@H](C)C(=O)N[C@@H](CCCCN)C(=O)NCC(=O)NCC(=O)N[C@@H](Cc1ccccc1)C(=O)N[C@@H](C(C)C)C(=O)N3)C(=O)N[C@@H](Cc1c[nH]cn1)C(=O)N[C@@H](CC(N)=O)C(=O)N[C@@H](Cc1c[nH]cn1)C(=O)N2", "organism": "Streptococcus pneumoniae", "system": "BS-444", "setting": "24 h, 37 °C, 99.9% killing", "endpoint": "MBC", "value": "0.5 µM"}
{"Structure (SMILES)": "CCC(=O)OCCSCCC(=O)N[C@H](CCN)C(=O)N[C@@H](CCN)C(=O)N[C@@H](CCN)C(=O)N[C@@H](CC(C)C)C(=O)N[C@H](Cc1ccccc1)C(=O)N[C@@H](CCN)C(=O)N[C@@H](CCN)C(=O)N[C@@H](CC(C)C)C(N)=O", "organism": "Acinetobacter calcoaceticus", "test": "BHI agar spot plating", "setting": "24 h, 37 °C", "endpoint": "MBC", "value": "> 128 µM"}
{"Structure (SMILES)": "CC(O)CN(CC(C)O)CC(C)O.O=C(O)C(Cl)Cl (stereo not drawn)", "organism": "Chenopodium album", "test": "herbicidal activity", "setting": "15 mg/mL, 21 days, pre-emergence greenhouse", "endpoint": "inhibition", "value": "0%"}
{"Structure (SMILES)": "FC(F)(F)c1cccc(CNc2nc(NC3CCN(Cc4ccccc4)CC3)c3nc[nH]c3n2)c1", "organism": "Cryptococcus neoformans", "test": "mRNA level, RNA-seq, refers to: MIPS CNAG_01539", "setting": "48 µg/mL, 3 h", "scale": "baseline: untreated", "endpoint": "fold change", "value": 3.81}
{"note": "A few entries again:"}
{"Structure (SMILES)": "CCC(=O)OCCSCCC(=O)N[C@H](CCN)C(=O)N[C@@H](CCN)C(=O)N[C@@H](CCN)C(=O)N[C@@H](CC(C)C)C(=O)N[C@H](Cc1ccccc1)C(=O)N[C@@H](CCN)C(=O)N[C@@H](CCN)C(=O)N[C@@H](CC(C)C)C(N)=O", "organism": "Acinetobacter calcoaceticus", "test": "BHI agar spot plating", "setting": "24 h, 37 °C", "endpoint": "MBC", "value": "> 128 µM"}
{"Structure (SMILES)": "CC(O)CN(CC(C)O)CC(C)O.O=C(O)C(Cl)Cl (stereo not drawn)", "organism": "Chenopodium album", "test": "herbicidal activity", "setting": "15 mg/mL, 21 days, pre-emergence greenhouse", "endpoint": "inhibition", "value": "0%"}
